Results from different studies.
± gives the spread as reported.

O=C([O-])CN1CCN(CC(=O)[O-])CCN(CC(=O)NCCc2ccc3c(c2)C2C=CCC2C(c2cc4c(cc2Br)OCO4)N3)CCN(CC(=O)[O-])CC1.[111In+3] (centres unmarked)  tissue uptake (mouse, Hec50 endometrial tumour, small intestine; 2 h post injection): 6.12 ± 3.96 %ID/g
CC(C)[C@H](NC(=O)[C@@H]1CCCN1C(=O)[C@H](CCCNC(=N)N)NC(=O)[C@H](CS)NC(=O)[C@H](Cc1c[nH]c2ccccc12)NC(=O)[C@H](CCCNC(=N)N)NC(=O)[C@@H](Cc1ccccc1)NC(=O)[C@H](Cc1c[nH]cn1)NC(=O)[C@H](CCC(=O)O)NC(=O)[C@H](CS)NC(=O)[C@H](CS)NC(=O)CNC(=O)[C@@H]1CC(=O)N[C@@H](CCCNC(=N)N)C(=O)NCC(=O)N[C@@H](CC(=O)O)C(=O)N[C@H](Cc2ccc(O)cc2)C(=O)N1)C(N)=O [technetium-99m labelled]  tissue uptake (C57 mouse, female, B16/F1 melanoma, lung; intravenous, 0.037 MBq, 24 h): 0.34 ± 0.11 %ID/g
CCCC[C@H](NC(=O)CNC(=O)CNC(=O)CN1CCN(CC(=O)O)CCN(CC(=O)O)CC1)C(=O)N[C@H]1CC(=O)NCCCC[C@@H](C(N)=O)NC(=O)[C@H](Cc2c[nH]c3ccccc23)NC(=O)[C@H](CCCNC(=N)N)NC(=O)[C@@H](Cc2ccccc2)NC(=O)[C@H](Cc2c[nH]cn2)NC1=O [copper-64 labelled]  tissue uptake (female C57 mouse, B16/F1 melanoma, brain; intravenous, 0.037 MBq, 2 h): 0.04 ± 0.02 %ID/g
CN(C)c1ccc(-c2nc3ccc(OCCCCCN4CCN5CCN(CC4)CC(=O)[O][Al]([18F])[O]C(=O)C5)cc3s2)cc1  tissue uptake (ICR mouse, lung; intravenous, 10 min): 9.21 ± 2.33 %ID/g
CCCC[C@H](NC(=O)CNC(=O)CNC(=O)CN1CCN(CC(=O)O)CCN(CC(=O)O)CCN(CC(=O)O)CC1)C(=O)N[C@H]1CC(=O)NCCCC[C@@H](C(N)=O)NC(=O)[C@H](Cc2c[nH]c3ccccc23)NC(=O)[C@H](CCCNC(=N)N)NC(=O)[C@@H](Cc2ccccc2)NC(=O)[C@H](Cc2c[nH]cn2)NC1=O [lead-203 labelled]  tissue uptake (C57 mouse, kidneys; intravenous, 0.056 MBq, 2 h): 5.84 ± 2.86 %ID/g
CCCC[C@H](NC(=O)CNC(=O)CNC(=O)CN1CCN(CC(=O)O)CCN(CC(=O)O)CCN(CC(=O)O)CC1)C(=O)N[C@H]1CC(=O)NCCCC[C@@H](C(N)=O)NC(=O)[C@H](Cc2c[nH]c3ccccc23)NC(=O)[C@H](CCCNC(=N)N)NC(=O)[C@@H](Cc2ccccc2)NC(=O)[C@H](Cc2c[nH]cn2)NC1=O [copper-64 labelled]  tissue uptake (C57 mouse female B16/F1 melanoma, intestines; intravenous, 0.037 MBq, 0.5 h): 7.19 ± 0.35 %ID
CC(C)[C@H](NC(=O)[C@@H]1CCCN1C(=O)[C@H](CCCNC(=N)N)NC(=O)[C@H](CS)NC(=O)[C@H](Cc1c[nH]c2ccccc12)NC(=O)[C@H](CCCNC(=N)N)NC(=O)[C@@H](Cc1ccccc1)NC(=O)[C@H](Cc1c[nH]cn1)NC(=O)[C@H](CCC(=O)O)NC(=O)[C@H](CS)NC(=O)[C@H](CS)NC(=O)[C@@H]1CC(=O)N[C@@H](CCCNC(=N)N)C(=O)NCC(=O)N[C@@H](CC(=O)O)C(=O)N[C@H](Cc2ccc(O)cc2)C(=O)N1)C(N)=O [technetium-99m labelled]  tissue uptake (C57 mouse, female, B16/F1 melanoma, heart; intravenous, 0.037 MBq, 2 h): 0.7 ± 0.15 %ID/g
CN1C(=O)[C@@H](Cc2ccc(O)c(I)c2)NC(=O)CNC(=O)[C@H](Cc2ccc3ccccc3c2)NC(=O)[C@H](CCCNC(=N)N)NC(=O)[C@H]1CCCNC(=O)c1ccc(CNC(=O)CN2CCN(CC(=O)O)CCN(CC(=O)O)CCN(CC(=O)O)CC2)cc1 [lutetium-177 labelled]  tissue uptake (female CB-17 SCID mouse, Daudi xenograft, lung; intravenous, 6 h, CXCR4 blocking, together with: AMD3100 2 mg/kg coinjected): 0.39 ± 0.03 %ID/g
